Assay results pooled from the literature.
Lines come from different studies, so protocols differ. ± gives the spread as reported.
BPTF bromodomain: Nucleosome-remodeling factor subunit BPTF, bromodomain (BPTF, Homo sapiens, UniProt Q12830)

| Structure (SMILES) | target | assay | test system | setting | Kd |
| --- | --- | --- | --- | --- | --- |
| CCc1nc2cc(C)c(Oc3ccc(OC(F)(F)F)cc3)cc2c(O)c1C | Cytochrome bc1 complex (Lucilia sericata, UniProt A7DT80) | binding, MS saturation binding | Lucilia sericata, submitochondrial particles |  | 0.015 µM |
| O=C1c2ccc(O)cc2-c2c(-c3ccc(O)cc3)oc3cc(O)cc1c23 | STUB1 (Homo sapiens, UniProt Q9UNE7) | binding, fluorescence polarization |  |  | 9.6 µM |
| O=C(O)Cc1ccc(O)cc1 | p-hydroxyphenylacetate 3-hydroxylase, reductase component (C1-hpah, Acinetobacter baumannii, UniProt Q6Q271) | NADH oxidation, allosteric activator, H2O2 amperometry |  | pH 7, with: NADH 50 µM | 103 µM |
| CC(=O)NCCCC[C@H](NC(=O)[C@H](CCCCN)NC(=O)[C@H](Cc1c[nH]cn1)NC(=O)[C@H](CCCNC(=N)N)NC(C)=O)C(=O)Nc1ccc2c(C)cc(=O)oc2c1 | SIRT1 (Homo sapiens, UniProt Q96EB6, C253S/C268S/C501S/C502S/del513-640/E230K) | peptide binding, isothermal titration calorimetry | 10% glycerol | pH 7.5, 25 °C, E230K mutant, with: resveratrol 0.5 mM | 19.5 µM |
| C[Si](C)(C)c1cc2c3c(c1)O[C@H](CO)[C@H](O)[C@@H]3OC2 | Galectin-9 (LGALS9, Homo sapiens, UniProt O00182) | cell-free assay, FP |  |  | 2800 µM |
| [N-]=[N+]=NCCOC1OC(CO)C(OC2OC(COC3(C(=O)O)CC(O)C(NC(=O)OCc4cn(C(c5ccccc5)c5ccccc5)nn4)C(C(O)C(O)CO)O3)C(O)C(O)C2O)C(O)C1O (stereo not drawn) | Sialic acid-binding Ig-like lectin 9, V-set domain (SIGLEC9, Homo sapiens, UniProt Q9Y336, C36S) | binding, isothermal titration calorimetry |  | pH 7.4, domain 1 | 19.5 ± 1.3 µM |
| O=C(Cc1cccc(C(F)(F)F)c1)Nc1cc(Oc2ccc3nc(NC(=O)C4CC4)sc3c2CO)ccc1F | RIPK3 (Homo sapiens, UniProt Q9Y572) | binding, competition with immobilised ligand |  |  | 0.16 µM |
| CC(=O)NCCCC[C@H](NC(=O)CNC(=O)[C@H](C)NC(=O)[C@H](CCCCN)NC(=O)CNC(=O)CNC(=O)[C@H](C)NC(=O)[C@@H](N)Cc1ccc(O)cc1)C(=O)N[C@@H](CC(=O)O)C(=O)N[C@@H](CO)C(=O)NCC(=O)N[C@@H](CCCCN)C(=O)N[C@@H](C)C(=O)N[C@@H](CCCCNC(C)=O)C(=O)N[C@H](C(=O)N[C@@H](CCCCN)C(=O)N[C@@H](C)C(=O)N[C@H](C(=O)N[C@@H](CO)C(=O)N[C@@H](CCCNC(=N)N)C(N)=O)C(C)C)[C@@H](C)O | BPTF bromodomain | bromodomain binding, PrOF NMR titration |  | pH 7.4, 5-fluorotryptophan-labelled bromodomain, 40-50 µM | 520 µM |
| CN(C)CCNC(=O)c1cccc2c(NCCCCc3c(N)nc(N)nc3N)c3ccccc3nc12 | (CCUG)6 RNA | binding, ITC |  | 25 °C, binding site 1 | 5.2 ± 0.6 µM |
| O=P(O)(O)O[C@@H]1[C@@H](O)[C@H](O)[C@H](O)[C@H](O)[C@H]1OP(=O)(O)O | Inositol 1,4,5-trisphosphate-gated calcium channel ITPR1, IP3-binding core (Itpr1, Rattus norvegicus, UniProt P29994) | binding, 3H-IP3 competition |  | IP3-binding core IBC | 0.432 µM |
| COc1cc(-c2nc3ccc(C(=O)NCCCN(C)C)cc3n2C2CCC2)cc(OC)c1OC | BMPR1B (Homo sapiens, UniProt O00238) | cell-free assay, TR-FRET |  |  | 0.254 µM |
| C#CCN(CC(=O)N(CCOC)CC(=O)N(CCOC)CC(N)=O)C(=O)CN(CCOC)C(=O)CN(CCC(C)C)C(=O)CN(Cc1ccc(S(N)(=O)=O)cc1)C(=O)CN(CCCCN)C(=O)[C@H](CC(C)C)NCc1ccccc1 | MMP14 (Homo sapiens, UniProt P50281) | binding, FP |  |  | 1.3 µM |
| CC(C)C[C@H](NC(=O)CNC(=O)[C@H](CC(C)C)NC(=O)[C@@H](N)CCC(=O)O)C(=O)N[C@H](C(=O)N1CCC[C@H]1C(=O)N[C@@H](COP(=O)(O)O)C(=O)N1CCC[C@H]1C(=O)N[C@@H](C)C(=O)N[C@@H](CO)C(=O)N[C@@H](CC(C)C)C(=O)N[C@@H](Cc1c[nH]c2ccccc12)C(=O)N1CCC[C@H]1C(=O)N1CCC[C@H]1C(=O)N1CCC[C@H]1C(=O)N1CCC[C@H]1C(=O)N[C@@H](CO)C(=O)N1CCC[C@H]1C(=O)N[C@@H](C)C(=O)N1CCC[C@H]1C(=O)N[C@@H](CO)C(=O)N[C@@H](CO)C(=O)N[C@H](C(=O)N[C@@H](CCCCN)C(=O)O)[C@@H](C)O)C(C)C | Peptidyl-prolyl cis-trans isomerase NIMA-interacting 1, PPIase domain (PIN1, Homo sapiens, UniProt Q13526) | binding, NMR titration | isolated PPIase domain | pH 6.8, 25 °C | 230 ± 42 µM |
| CNCC=C(C)C=CC=CC=CC1=C(C)CCCC1(C)C | Rhodopsin, apoprotein (opsin) (RHO, Bos taurus, UniProt P02699) | Trp fluorescence quenching | opsin membranes | titration up to 1 µM | 0.03 µM |
| CC(=O)NCCCC[C@H](NC(=O)[C@H](C)NC(=O)[C@H](CCCCN)NC(=O)CNC(=O)[C@H](CO)NC(=O)[C@H](CC(=O)O)NC(=O)[C@H](CCCCN)NC(=O)CNC(=O)[C@H](C)NC(=O)[C@H](CCCCN)NC(=O)CNC(=O)CNC(=O)[C@H](C)NC(=O)[C@@H](N)Cc1ccc(O)cc1)C(=O)N[C@@H](C)C(=O)N[C@@H](CCCCN)C(=O)N[C@@H](C)C(=O)N[C@H](C(=O)N[C@@H](CO)C(=O)N[C@@H](CCCNC(=N)N)C(N)=O)C(C)C | BPTF bromodomain | bromodomain binding, PrOF NMR titration |  | pH 7.4, 5-fluorotryptophan-labelled bromodomain, 40-50 µM | 1730 µM |
| C[n+]1ccc(/C=N/NC(=O)c2cccc(C(=O)N/N=C/c3cc[n+](C)c4ccccc34)n2)c2ccccc21 | G-quadruplex DNA myc22 | fluorimetric titration |  | pH 7.2, 100 mM KCl, with: Cy5-labelled DNA 2 nM | 0.0112 ± 0.0022 µM |
| O=c1c(OS(=O)(=O)O)c(-c2ccc(OS(=O)(=O)O)c(OS(=O)(=O)O)c2)oc2cc(OS(=O)(=O)O)cc(OCCCOc3cc(OS(=O)(=O)O)cc4oc(-c5ccc(OS(=O)(=O)O)c(OS(=O)(=O)O)c5)c(OS(=O)(=O)O)c(=O)c34)c12 | Fibronectin (FN1, Homo sapiens, UniProt P02751) | binding, MST |  |  | 15.5 µM |
| OC[C@H]1Oc2cc(Cc3ccccc3)cc3c2[C@@H](OC3)[C@H]1O | Galectin-1 (LGALS1, Homo sapiens, UniProt P09382) | ligand displacement, FP |  |  | 140 µM |
| Oc1c(I)cc(I)cc1CN1CCC(N2CCC(O)CC2)CC1 | Cellular tumor antigen p53, DNA-binding domain (TP53, Homo sapiens, UniProt P04637, M133L/N239Y/N268D/V203A/Y220C) | ITC |  | pH 7.2, 20 °C, 5% DMSO | 78 µM |
| Cc1ccc(NC(=O)c2c(C)oc3ccc(O)c(CN4CCCCCC4)c23)cc1 | MYC Pu22 G-quadruplex DNA | surface plasmon resonance |  |  | 4.5 ± 1.4 µM |
| Cc1cc(N2CC[C@@](C#N)(C3(C)CC3)C2=O)cc(C(=O)NCc2cc(F)cc(-c3cnn(C)c3)c2)n1 | Proline--tRNA ligase (Plasmodium falciparum, UniProt Q8I5R7) | binding, MST |  |  | 0.288 µM |
| CC(=O)NCCCC[C@H](NC(=O)CNC(=O)[C@H](C)NC(=O)[C@H](CCCCN)NC(=O)CNC(=O)CNC(=O)[C@H](C)NC(=O)[C@@H](N)Cc1ccc(O)cc1)C(=O)N[C@@H](CC(=O)O)C(=O)N[C@@H](CO)C(=O)NCC(=O)N[C@@H](CCCCN)C(=O)N[C@@H](C)C(=O)N[C@@H](CCCCNC(C)=O)C(=O)N[C@H](C(=O)N[C@@H](CCCCNC(C)=O)C(=O)N[C@@H](C)C(=O)N[C@H](C(=O)N[C@@H](CO)C(=O)N[C@@H](CCCNC(=N)N)C(N)=O)C(C)C)[C@@H](C)O | BPTF bromodomain | bromodomain binding, PrOF NMR titration |  | pH 7.4, 5-fluorotryptophan-labelled bromodomain, 40-50 µM | 650 µM |
| CC[C@H](C)[C@H](NC(=O)[C@H](CCCCN)NC(=O)[C@H](CCCCN)NC(=O)[C@@H](NC(=O)[C@H](CCC(=O)O)NC(=O)[C@H](C)NC(=O)[C@H](CCC(=O)O)NC(=O)[C@H](CO)NC(=O)[C@H](CC(C)C)NC(=O)[C@H](CC(=O)O)NC(=O)[C@H](CC(C)C)NC(=O)CNC(=O)[C@H](CCCNC(=N)N)NC(=O)[C@H](CC(C)C)NC(=O)[C@H](CO)NC(=O)CNC(=O)CNC(=O)CNC(=O)CCCC[C@@H]1SC[C@@H]2NC(=O)N[C@@H]21)C(C)C)C(=O)N[C@@H](CC(C)C)C(=O)N[C@@H](CC(=O)O)C(=O)N[C@@H](CCC(=O)O)C(=O)N[C@H](C(=O)N[C@H](C(=O)N[C@@H](CCCCN)C(=O)N[C@@H](CC(=O)O)C(=O)O)C(C)C)[C@@H](C)CC | Fab B11 antibody (human) | binding, biolayer interferometry |  | with: biotinylated peptide on tips | 0.043 ± 0.001 µM |
| CCc1cc2c3c(c1CC)O[C@H](CO)[C@H](O)[C@@H]3OC2 | Galectin-9, N-terminal CRD (LGALS9, Homo sapiens, UniProt O00182) | binding, competitive fluorescence polarization |  | 20 °C, galectin-9 N-terminal domain 1.0 µM | > 6000 µM |

Repeated from above:
| Structure (SMILES) | target | assay | test system | setting | Kd |
| --- | --- | --- | --- | --- | --- |
| C[Si](C)(C)c1cc2c3c(c1)O[C@H](CO)[C@H](O)[C@@H]3OC2 | Galectin-9 (LGALS9, Homo sapiens, UniProt O00182) | cell-free assay, FP |  |  | 2800 µM |
| [N-]=[N+]=NCCOC1OC(CO)C(OC2OC(COC3(C(=O)O)CC(O)C(NC(=O)OCc4cn(C(c5ccccc5)c5ccccc5)nn4)C(C(O)C(O)CO)O3)C(O)C(O)C2O)C(O)C1O (stereo not drawn) | Sialic acid-binding Ig-like lectin 9, V-set domain (SIGLEC9, Homo sapiens, UniProt Q9Y336, C36S) | binding, isothermal titration calorimetry |  | pH 7.4, domain 1 | 19.5 ± 1.3 µM |
| O=C(Cc1cccc(C(F)(F)F)c1)Nc1cc(Oc2ccc3nc(NC(=O)C4CC4)sc3c2CO)ccc1F | RIPK3 (Homo sapiens, UniProt Q9Y572) | binding, competition with immobilised ligand |  |  | 0.16 µM |
| CC(=O)NCCCC[C@H](NC(=O)CNC(=O)[C@H](C)NC(=O)[C@H](CCCCN)NC(=O)CNC(=O)CNC(=O)[C@H](C)NC(=O)[C@@H](N)Cc1ccc(O)cc1)C(=O)N[C@@H](CC(=O)O)C(=O)N[C@@H](CO)C(=O)NCC(=O)N[C@@H](CCCCN)C(=O)N[C@@H](C)C(=O)N[C@@H](CCCCNC(C)=O)C(=O)N[C@H](C(=O)N[C@@H](CCCCN)C(=O)N[C@@H](C)C(=O)N[C@H](C(=O)N[C@@H](CO)C(=O)N[C@@H](CCCNC(=N)N)C(N)=O)C(C)C)[C@@H](C)O | BPTF bromodomain | bromodomain binding, PrOF NMR titration |  | pH 7.4, 5-fluorotryptophan-labelled bromodomain, 40-50 µM | 520 µM |
